Published values pooled from the literature.
Numbered parts are unrelated; each lists some results of a single study. Changes are numbered by the printed parent chain.

Study 1
Target: Interferon regulatory factor 7, full length, phosphomimetic (IRF7, Homo sapiens, UniProt Q92985, residues 1-503, S471D/S472D/S475D/S476D/S477D/S483D/S484D/S487D)
UniProt Q92985, sequence (whole entry, unmodified, looked up): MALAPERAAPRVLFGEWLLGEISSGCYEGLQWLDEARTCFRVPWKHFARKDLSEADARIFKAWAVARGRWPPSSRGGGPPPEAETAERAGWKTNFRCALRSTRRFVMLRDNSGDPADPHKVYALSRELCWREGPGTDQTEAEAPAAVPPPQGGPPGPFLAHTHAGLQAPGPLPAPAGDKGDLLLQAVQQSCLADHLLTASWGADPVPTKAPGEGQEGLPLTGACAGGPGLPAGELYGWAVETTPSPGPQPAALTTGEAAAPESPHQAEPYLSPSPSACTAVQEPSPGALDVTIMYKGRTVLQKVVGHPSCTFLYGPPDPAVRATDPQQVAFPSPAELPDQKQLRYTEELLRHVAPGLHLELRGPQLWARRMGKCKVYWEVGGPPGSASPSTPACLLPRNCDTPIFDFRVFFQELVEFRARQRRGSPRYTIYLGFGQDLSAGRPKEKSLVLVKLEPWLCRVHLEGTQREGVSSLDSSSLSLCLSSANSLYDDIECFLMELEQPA
Technique: protein-binding microarray
Molecule type: double-stranded DNA, one strand shown
Matrix: in vitro
Concentration: 2200 nM top
Notes: 60-bp whole probe
With: salmon DNA 0.4 mg/ml
Baseline: random background probes
Reading: higher = stronger binding
Shared flanks, not repeated: GCCTAGCAC … GTCTTGATTCGCTTGACGCTGCTG
Oligonucleotide | fitted relative affinity [z-score]
AGGAGAGATTAAGTAACTTAGTGCTAG | -1.62
TTAGATTTCGGGACTGGACTAGTGCTA | 0.671
TTAGATATCAGTATCGATTAGTGCTAG | 0.287
TCAAGAATGTTTTTCATACTGTGCTAG | -0.0926
GACGGTTTCGGGTACCGGGACGTGCTA | 5.63
TTATGACTGGGGACTGGGTTAGTGCTA | -0.364
GACGGTGTCGACACTGGGGACGTGCTA | -0.356
TTAGGTTTCGGTATCGGTCAGTGCTAG | 7.61
CCCTTACCGCATATCGGGGTGTGCTAG | -0.107
GACAATATCGGGACTGGAGACGTGCTA | -0.195
GTAGGACTGGGTTTCGGTTAGTGCTAG | 3.61
ATTTTTCTAATTTACTTTGGGTGCTAG | 1.7
TTAAATTTCGGGACTGGATTAGTGCTA | 0.906
TTAGGTATCGGGTCTCGGTTAGTGCTA | 0.941
GACGATCTGGGGTATCGAGACGTGCTA | 0.0749
CTTTAACTCATTTTCGTTTTGTGCTAG | 11.5
CACGGTATCGGTTTCGGGACGTGCTAG | 3.96
TCACAAGTCTTGTTTTACACTGTGCTA | 1.06
GGCATTTTCGGGTAGATGGCCGTGCTA | 5.25

Study 2
Target: Sal-like protein 4, full length isoform A (SALL4, Homo sapiens, UniProt Q9UJQ4, residues 1-1053)
UniProt Q9UJQ4, sequence (whole entry, looked up): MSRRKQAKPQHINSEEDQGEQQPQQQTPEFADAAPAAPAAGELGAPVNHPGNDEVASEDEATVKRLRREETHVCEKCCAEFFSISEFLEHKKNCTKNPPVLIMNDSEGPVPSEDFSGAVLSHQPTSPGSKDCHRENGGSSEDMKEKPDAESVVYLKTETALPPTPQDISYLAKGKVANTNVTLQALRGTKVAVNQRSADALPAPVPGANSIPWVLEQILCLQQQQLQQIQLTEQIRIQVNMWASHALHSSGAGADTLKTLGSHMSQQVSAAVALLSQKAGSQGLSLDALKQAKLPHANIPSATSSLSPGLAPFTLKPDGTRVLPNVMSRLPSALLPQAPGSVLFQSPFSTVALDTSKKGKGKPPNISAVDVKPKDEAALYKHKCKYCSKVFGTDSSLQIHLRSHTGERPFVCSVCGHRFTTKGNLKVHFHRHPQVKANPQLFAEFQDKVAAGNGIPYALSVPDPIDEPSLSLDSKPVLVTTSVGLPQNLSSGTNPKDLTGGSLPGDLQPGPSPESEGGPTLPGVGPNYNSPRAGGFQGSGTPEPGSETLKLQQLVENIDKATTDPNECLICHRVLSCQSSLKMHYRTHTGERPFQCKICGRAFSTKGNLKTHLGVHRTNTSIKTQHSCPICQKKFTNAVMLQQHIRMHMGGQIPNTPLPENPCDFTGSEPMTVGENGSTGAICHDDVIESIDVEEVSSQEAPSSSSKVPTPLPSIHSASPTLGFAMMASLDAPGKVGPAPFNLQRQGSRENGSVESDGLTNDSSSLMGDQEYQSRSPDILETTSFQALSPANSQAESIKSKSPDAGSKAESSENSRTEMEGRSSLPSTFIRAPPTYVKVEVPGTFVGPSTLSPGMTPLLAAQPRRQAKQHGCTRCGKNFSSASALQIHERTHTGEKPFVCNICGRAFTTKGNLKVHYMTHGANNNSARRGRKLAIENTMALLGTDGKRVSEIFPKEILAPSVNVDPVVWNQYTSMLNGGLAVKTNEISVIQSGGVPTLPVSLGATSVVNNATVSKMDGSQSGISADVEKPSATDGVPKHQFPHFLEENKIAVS
Technique: universal PBM
Molecule type: double-stranded DNA, one strand shown
Matrix: in vitro
Concentration: 600 nM
Notes: 8-mer, flanks averaged, mean of replicates
Reading: higher = stronger binding
Oligonucleotide | E-score
ACCCCTAC | -0.216
CGAGATTA | 0.163
CACGGCGA | -0.194
GATGCTCA | -0.124
CAATACCG | -0.179
CTGTCAAA | 0.11
CCAATTTA | 0.24
ATGGTTCA | 0.0298
CTACGTGA | -0.169
GCAAGGTA | 0.0621
AGCACGGC | -0.172
AAAGCCTG | -0.0221
CAAAAAAA | 0.295

Study 3
Target: CCNB1, cyclin fold, Cln2 fusion (human)
Technique: yeast growth competition, sequencing
Matrix: yeast
Notes: weak parent motif
Baseline: not given
Reading: higher = stronger binding
Parent: SCAPER docking peptide (human); SNARRSLNFGGST
Substitution | normalised enrichment score
HNARRSLNFGGST [S1H] | 0.289
SNARRGLNFGGST [S6G] | 0.576
SNAQRSLNFGGST [R4Q] | -0.4
SNARRSLNFGGSR [T13R] | 0.847
SRARRSLNFGGST [N2R] | 0.259
SNARRSLNFGGSC [T13C] | 0.466
YNARRSLNFGGST [S1Y] | 1.42
SNARRSLNFGKST [G11K] | 1.31
SNARRSLEFGGST [N8E] | 0.211
SNACRSLNFGGST [R4C] | 0.301
SNFRRSLNFGGST [A3F] | 0.721
STARRSLNFGGST [N2T] | 0.45
SNARASLNFGGST [R5A] | 0.109
SNARRSPNFGGST [L7P] | 0.266
SNARRSLIFGGST [N8I] | 1.04
SNAIRSLNFGGST [R4I] | 0.762
SNARRVLNFGGST [S6V] | 0.366

Further values, each from its own experiment
Molecule | target | assay | test system | setting | how to read | endpoint | result
PhoQ, residues 284 288 289 292 302 303 AQGLTV | PhoP, residues 12 14 15 18 19 NHTVL (Escherichia coli, UniProt P23836) | Sort-seq, refers to: YFP reporter | E. coli | PhoQ-PhoP variant library, with: 10 µM Mg2+ | baseline: high Mg2+ state, higher = stronger signaling | fold induction | 1.24

Some of these lines once more (study 1):
Oligonucleotide | fitted relative affinity [z-score]
AGGAGAGATTAAGTAACTTAGTGCTAG | -1.62
TTAGATTTCGGGACTGGACTAGTGCTA | 0.671
TTAGATATCAGTATCGATTAGTGCTAG | 0.287
TCAAGAATGTTTTTCATACTGTGCTAG | -0.0926
GACGGTTTCGGGTACCGGGACGTGCTA | 5.63
TTATGACTGGGGACTGGGTTAGTGCTA | -0.364
GACGGTGTCGACACTGGGGACGTGCTA | -0.356
